Measurements collected from several papers.
Numbered parts are unrelated; each lists some results of a single study. Substitutions count along the parent as printed.

Study 1
Target: ABI1, truncated, D143A, DHFR fusion (Arabidopsis thaliana)
Method: DHFR PCA, deep sequencing
Medium: yeast
Setting: methotrexate growth selection, single substitutions
Added: (+)-ABA 0.0091 µM
Reference: wild-type fitted maximum
Direction: higher = stronger binding
Starting sequence: PYL1, truncated, DHFR fusion (Arabidopsis thaliana); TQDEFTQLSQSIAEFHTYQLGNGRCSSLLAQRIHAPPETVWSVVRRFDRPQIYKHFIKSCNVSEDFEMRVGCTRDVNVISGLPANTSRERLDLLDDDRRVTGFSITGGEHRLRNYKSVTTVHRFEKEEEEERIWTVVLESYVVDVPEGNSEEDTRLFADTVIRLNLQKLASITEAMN; partner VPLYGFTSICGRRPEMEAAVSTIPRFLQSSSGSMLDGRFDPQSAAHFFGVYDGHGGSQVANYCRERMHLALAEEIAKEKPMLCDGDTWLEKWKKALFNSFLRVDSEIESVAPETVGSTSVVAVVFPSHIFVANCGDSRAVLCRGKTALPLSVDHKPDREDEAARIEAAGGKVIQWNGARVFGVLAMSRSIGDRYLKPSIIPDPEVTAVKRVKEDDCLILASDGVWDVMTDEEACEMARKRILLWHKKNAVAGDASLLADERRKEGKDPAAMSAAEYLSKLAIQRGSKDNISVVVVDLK
Under “relative binding score”, `A30E` is recorded as -0.0107%.
Under “relative binding score”, `E139Q` is recorded as 16.7%.
For `C25V`, “relative binding score” read 65.1%.
`F47D`: “relative binding score” -0.383%.
For `A35D`, “relative binding score” read 0.783%.
For `L166T`, “relative binding score” read 1.05%.
For `T17A`, “relative binding score” read 8.81%.
`V137K`: “relative binding score” 3.9%.

Study 2
Target: Prothrombin, mature alpha-thrombin (F2, Homo sapiens, UniProt P00734)
Method: aptamer microarray, sandwich
Molecule type: DNA with 2'F-ANA
Medium: in vitro
Tested at: 200 nM
Setting: whole 15-mer aptamer, many near background
Added: Cy3 exosite-II aptamer, 400 nM
Direction: higher = stronger binding
Sequence: GGTTGGTGTGGTTGG
Under “mean fluorescence intensity”, `2'F-ANA at 3 5 9 10 13 14 15` is recorded as 49.2 a.u.
Under “mean fluorescence intensity”, `2'F-ANA at 1 2 3 4 5 8 10 15` is recorded as 48.2 a.u.
For `2'F-ANA at 2 3 5 6 8 9 11 13 14 15`, “mean fluorescence intensity” read 109 a.u.
`2'F-ANA at 1 2 3 4 5 7 11 12 13 14`: “mean fluorescence intensity” 48.3 a.u.
Under “mean fluorescence intensity”, `2'F-ANA at 4 7 8 9 10 11` is recorded as 85.2 a.u.
Under “mean fluorescence intensity”, `2'F-ANA at 2 3 4 6 8 9 15` is recorded as 522 a.u.
Under “mean fluorescence intensity”, `2'F-ANA at 3 5 7 10 11 13 14` is recorded as 51.3 a.u.
Under “mean fluorescence intensity”, `2'F-ANA at 1 2 3 4 5 6 8 13 15` is recorded as 77.4 a.u.
For `2'F-ANA at 1 4 5 14`, “mean fluorescence intensity” read 43.1 a.u.
`2'F-ANA at 7 8 9 10 13` — result for “mean fluorescence intensity”: 160 a.u.
`2'F-ANA at 1 2 5 9 11 13`: “mean fluorescence intensity” 95.2 a.u.
For `2'F-ANA at 3 4 7 8 9 11 12 14`, “mean fluorescence intensity” read 334 a.u.

Study 3
Target: CCNE2, cyclin fold, Cln2 fusion (human)
Method: yeast growth competition, sequencing
Medium: yeast
Setting: strong parent motif
Reference: not given
Direction: higher = stronger binding
Starting sequence: PKN2 docking peptide (human); VSAVRKLDFSDTM
`VSFVRKLDFSDTM [A3F]` — result for “normalised enrichment score”: 3.55.
For `VSAVRKLDFSDWM [T12W]`, “normalised enrichment score” read 5.49.
`VSAVRKLWFSDTM [D8W]`: “normalised enrichment score” 2.51.
`VSAVRKLDPSDTM [F9P]` — result for “normalised enrichment score”: 0.312.
For `VSAVRKLDFSVTM [D11V]`, “normalised enrichment score” read 5.01.
`VKAVRKLDFSDTM [S2K]`: “normalised enrichment score” 4.55.

Single results of other studies
`PhoQ, residues 284 288 289 292 302 303 AGGCYF` gave a fold induction of 0.552 (PhoP, residues 12 14 15 18 19 NFCKL (Escherichia coli, UniProt P23836); Sort-seq, refers to: YFP reporter; E. coli; PhoQ-PhoP variant library, added: 10 µM Mg2+; reference: high Mg2+ state, higher = stronger signaling).
